Experimental data from different studies.
Each numbered part is a random draw from the data of one study; scales do not carry over between parts. Several values in a cell are separate wells, animals, samples, runs or records.
Sequence of UniProt P11229 (whole entry, looked up): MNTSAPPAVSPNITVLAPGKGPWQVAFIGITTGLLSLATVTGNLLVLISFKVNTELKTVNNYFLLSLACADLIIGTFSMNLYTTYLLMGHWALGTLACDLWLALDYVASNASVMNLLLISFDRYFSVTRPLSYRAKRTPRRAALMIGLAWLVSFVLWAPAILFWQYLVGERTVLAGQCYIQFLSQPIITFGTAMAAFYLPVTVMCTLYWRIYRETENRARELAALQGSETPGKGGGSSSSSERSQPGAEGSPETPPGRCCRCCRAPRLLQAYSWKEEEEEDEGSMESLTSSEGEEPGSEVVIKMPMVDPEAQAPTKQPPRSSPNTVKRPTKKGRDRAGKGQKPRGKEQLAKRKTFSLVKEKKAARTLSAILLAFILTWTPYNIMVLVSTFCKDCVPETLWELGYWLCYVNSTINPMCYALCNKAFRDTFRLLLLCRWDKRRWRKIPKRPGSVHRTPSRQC

Study 1
Structure (SMILES): CN(C(=O)c1ccn2ncc(-c3ccc(C(N)=O)cc3)c2c1)c1ccc(C#N)cn1
Organism: Cryptosporidium parvum
Cell line: HCT-8
Strain: nanoluciferase-expressing
| technique | tested at | time | notes | relative to | reading | parasite luminescence |
| --- | --- | --- | --- | --- | --- | --- |
| time-kill | 6.667 µM | 72 h |  |  | higher = more parasites | 20700 RLU and 29000 RLU |
| time-kill | 6.667 µM | 4 h |  |  | higher = more parasites | 92200 RLU and 87200 RLU |
| washout | concentration not given | exposure 0-72 h post-infection | unit not given | day 0 RLU |  | -1880 and -1850 and -1980 and -1840 |
| time-kill | 2.222 µM | 8 h |  |  | higher = more parasites | 103000 RLU and 99700 RLU |
| time-kill | 0.00102 µM | 72 h |  |  | higher = more parasites | 194000 RLU and 116000 RLU |
| time-kill | 0.00102 µM | 4 h |  |  | higher = more parasites | 59500 RLU and 67700 RLU |
| time-kill | 20 µM | 24 h |  |  | higher = more parasites | 97300 RLU and 90000 RLU |
| time-kill | 20 µM | 48 h |  |  | higher = more parasites | 31500 RLU and 28800 RLU |

Study 2
SMILES: CO[C@@H]1[C@@H](OC(N)=O)[C@@H](O)[C@H](Oc2ccc3c(O)c(NC(=O)c4ccc(O)c(CC=C(C)C)c4)c(=O)oc3c2C)OC1(C)C
| cell line | read-out | technique | tested at | time | relative to | viability |
| --- | --- | --- | --- | --- | --- | --- |
| RPE-1 BRCA1-/- PARPi-resistant R4 |  | CellTiter-Glo | 200 µM | 6 days |  | 45.8% and 46.7% |
| RPE-1 | cell growth or viability | ATP luminescence | 25 µM | 6 days |  | 100% |
| MDA-MB-436 (BRCA1-mutant) |  | CellTiter-Glo | 50 µM | 6 days | untreated | 28.5% and 38.9% and 41.6% and 27.8% and 35.6% |
| UWB1.289 parental |  | CellTiter-Glo | 25 µM | 6 days | untreated | 73.5% |
| RPE-1 BRCA1-/- PARPi-resistant R3 |  | CellTiter-Glo | 25 µM | 6 d |  | 83.4% |
| RPE-1 BRCA1-/- PARPi-resistant R4 |  | CellTiter-Glo | 200 µM | 6 d |  | 47.1% |
| RPE-1 BRCA1-/- PARPi-resistant R3 |  | CellTiter-Glo | 150 µM | 6 days |  | 58.9% and 57.2% |
| RPE-1 p53-/- BRCA1-/- |  | CellTiter-Glo | 100 µM | 6 d |  | 45.7% and 53.1% |

Single results of other studies
| SMILES | target or system | assay | test system | setting | scale | quantity | value |
| --- | --- | --- | --- | --- | --- | --- | --- |
| O=C(Nc1cnc(Oc2ccc(F)cc2)nc1)N1CCc2ncccc2[C@@H]1c1ccc(F)cc1 | Muscarinic acetylcholine receptor M1 (CHRM1, Homo sapiens, UniProt P11229) | binding, radioligand binding |  | 10 µM |  | inhibition | 7.56% |
| CC(=O)N[C@@H](Cc1c[nH]c2ccccc12)C(=O)N[C@@H](CCC(=O)C=[N+]=[N-])C(=O)OC(C)C |  | UPLC-MS/MS | EL4 tumor, C57BL/6 CES1-/- mice, tumor | subcutaneous, 0.3 mg/kg DON equivalent daily, 5 days | higher = more metabolite | thiamin level | 1.33e+07 a.u. and 1.12e+07 a.u. and 8.99e+06 a.u. and 1.11e+07 a.u. and 6.66e+06 a.u. and 1.1e+07 a.u. |

Excerpt of the above (study 1):
| technique | tested at | time | notes | relative to | reading | parasite luminescence |
| --- | --- | --- | --- | --- | --- | --- |
| washout | concentration not given | exposure 0-72 h post-infection | unit not given | day 0 RLU |  | -1880 and -1850 and -1980 and -1840 |
